Published values of several laboratories.
Compare with care: the assays were run in different laboratories. ± gives the spread as reported.
CFTR del508-508: Cystic fibrosis transmembrane conductance regulator (CFTR, Homo sapiens, UniProt P13569, del508-508)
Sequence of UniProt P13569 (whole entry, unmodified, looked up): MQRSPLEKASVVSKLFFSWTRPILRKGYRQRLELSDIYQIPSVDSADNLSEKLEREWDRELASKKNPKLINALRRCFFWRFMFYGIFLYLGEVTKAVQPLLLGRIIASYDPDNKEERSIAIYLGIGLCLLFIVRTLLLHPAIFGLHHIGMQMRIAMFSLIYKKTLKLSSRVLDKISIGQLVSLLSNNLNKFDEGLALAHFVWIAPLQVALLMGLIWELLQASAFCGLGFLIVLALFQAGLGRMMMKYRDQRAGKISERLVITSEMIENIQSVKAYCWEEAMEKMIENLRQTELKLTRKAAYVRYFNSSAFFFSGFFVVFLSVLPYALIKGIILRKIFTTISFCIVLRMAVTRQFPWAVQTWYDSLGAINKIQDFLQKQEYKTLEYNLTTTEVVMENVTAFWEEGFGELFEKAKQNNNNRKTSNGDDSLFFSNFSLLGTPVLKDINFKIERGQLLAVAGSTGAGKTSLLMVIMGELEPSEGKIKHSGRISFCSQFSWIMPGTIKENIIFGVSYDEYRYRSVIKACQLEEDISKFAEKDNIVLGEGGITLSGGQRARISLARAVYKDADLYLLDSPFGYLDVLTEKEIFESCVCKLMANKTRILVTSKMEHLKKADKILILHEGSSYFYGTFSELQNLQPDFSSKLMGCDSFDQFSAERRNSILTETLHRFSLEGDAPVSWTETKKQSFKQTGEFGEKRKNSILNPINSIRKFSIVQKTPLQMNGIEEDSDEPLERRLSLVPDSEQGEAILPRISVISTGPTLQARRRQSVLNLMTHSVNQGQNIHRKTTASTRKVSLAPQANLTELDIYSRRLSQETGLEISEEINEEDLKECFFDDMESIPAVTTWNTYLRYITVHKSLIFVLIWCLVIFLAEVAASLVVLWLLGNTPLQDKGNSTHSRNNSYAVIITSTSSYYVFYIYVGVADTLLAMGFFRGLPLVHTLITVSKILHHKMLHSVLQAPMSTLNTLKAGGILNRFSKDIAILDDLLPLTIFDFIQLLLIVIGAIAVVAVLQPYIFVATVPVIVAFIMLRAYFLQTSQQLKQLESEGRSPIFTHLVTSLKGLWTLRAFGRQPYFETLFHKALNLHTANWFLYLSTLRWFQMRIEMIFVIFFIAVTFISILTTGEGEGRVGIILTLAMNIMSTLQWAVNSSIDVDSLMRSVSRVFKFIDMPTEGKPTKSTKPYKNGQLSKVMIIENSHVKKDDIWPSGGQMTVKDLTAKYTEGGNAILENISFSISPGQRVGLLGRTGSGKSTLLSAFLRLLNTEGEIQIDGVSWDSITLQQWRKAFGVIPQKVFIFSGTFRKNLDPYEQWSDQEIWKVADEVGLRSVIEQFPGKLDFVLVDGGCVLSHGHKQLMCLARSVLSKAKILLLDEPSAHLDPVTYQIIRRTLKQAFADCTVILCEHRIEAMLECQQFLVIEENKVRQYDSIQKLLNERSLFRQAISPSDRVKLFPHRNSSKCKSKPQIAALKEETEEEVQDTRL
CFTR: Cystic fibrosis transmembrane conductance regulator (CFTR, Homo sapiens, UniProt P13569)

| SMILES | target | assay | system | setting | scale | measurement | value |
| --- | --- | --- | --- | --- | --- | --- | --- |
| COC(=O)CCC(=O)Nc1nc2c(s1)-c1nc(Nc3cc(Cl)ccc3OC)sc1CCCC2 | CFTR del508-508 | iodide influx, corrector, YFP halide quenching | FRT cells expressing YFP-H148Q/I152L | 16 to 20 h, 37 °C, genistein 50 µM, together with: forskolin 20 µM | – | Vmax | 481 µM/s |
| C=CCn1nc(-c2sc(NC(=O)C(C)(C)C)nc2C)cc1C(=O)Nc1ccc(OC)cc1 | CFTR del508-508 | iodide influx, corrector, YFP quenching | FRT expressing ΔF508-CFTR and YFP-H148Q/I152L | together with: forskolin 20 µM + genistein 50 µM | – | Vmax | 0.5 µM/s |
| COc1ccc(C(=O)NCCNc2nc3cc(C)cc(C)c3cc2C#N)c(OC)c1 | CFTR del508-508 | CFTR correction, corrector, iodide influx rate | FRT expressing YFP-H148Q/I152L | up to 25 µM, 16-20 h, 37 °C, together with: forskolin 20 µM, genistein 50 µM | – | Vmax | 108 µM/s |
| COc1ccc(NC(=O)c2cc(-c3sc(NC(=O)C(C)(C)C)nc3C)nn2Cc2cc(Cl)ccc2OC)cc1 | CFTR del508-508 | iodide influx, corrector, YFP quenching | FRT expressing ΔF508-CFTR and YFP-H148Q/I152L | together with: forskolin 20 µM + genistein 50 µM | – | Vmax | 6.1 µM/s |
| COc1ccc(Cl)cc1Nc1nc2c(s1)CCCCc1nc(NC(=O)C3CC3)sc1-2 | CFTR del508-508 | iodide influx, corrector, YFP halide quenching | FRT cells expressing YFP-H148Q/I152L | 16 to 20 h, 37 °C, genistein 50 µM, together with: forskolin 20 µM | – | Vmax | 247 µM/s |
| C=CCn1nc(-c2sc(NC(=O)C(C)(C)C)nc2C)cc1C(=O)NCc1ccccc1 | CFTR del508-508 | iodide influx, corrector, YFP quenching | FRT expressing ΔF508-CFTR and YFP-H148Q/I152L | together with: forskolin 20 µM + genistein 50 µM | – | Vmax | 1.4 µM/s |
| O=c1cc(-c2ccc(O)cc2)oc2cc(O)cc(O)c12 | CFTR | ion current, whole-cell patch clamp | Calu-3 | 50 µM, together with: forskolin | baseline: forskolin-stimulated current | activation | 319 ± 60% |
| Cc1cc(C)c2cc(C#N)c(NCCCNC(=O)c3cccnc3)nc2c1 | CFTR del508-508 | CFTR correction, corrector, iodide influx rate | FRT expressing YFP-H148Q/I152L | up to 25 µM, 16-20 h, 37 °C, together with: forskolin 20 µM, genistein 50 µM | – | Vmax | 140 µM/s |
| CCCC(=O)O | CFTR (Homo sapiens, UniProt P13569, N1303K) | corrector | FRT cells expressing CFTR | 3 mM, 24 h, together with: forskolin, potentiator 5 µM | baseline: no corrector | short-circuit current increase | 2 to 3 fold |
| Cc1cc(C)c2cc(C#N)c(NCCNC(=O)c3cccnc3)nc2c1 | CFTR del508-508 | CFTR correction, corrector, iodide influx rate | FRT expressing YFP-H148Q/I152L | up to 25 µM, 16-20 h, 37 °C, together with: forskolin 20 µM, genistein 50 µM | – | Vmax | 151 µM/s |
| CCOC(=O)c1cc(-c2sc(NC(=O)C(C)(C)C)nc2C)nn1Cc1ccccc1 | CFTR del508-508 | iodide influx, corrector, YFP quenching | FRT expressing ΔF508-CFTR and YFP-H148Q/I152L | together with: forskolin 20 µM + genistein 50 µM | – | Vmax | 2.6 µM/s |
| Cn1c(=O)c2c(-c3ccccc3)n3c(c2n(C)c1=O)C(c1ccc(Br)o1)Oc1ccc(C(=O)O)cc1-3 (stereo not shown) | CFTR | chloride current, inhibitor, short-circuit current | FRT cells | – | baseline: 8 | potency improvement | ~10 fold |
| CN(C)c1ccc(Cl)cc1Nc1nc2c(s1)CCCc1nc(NC(=O)C(C)(C)C)sc1-2 | CFTR del508-508 | iodide influx, corrector, YFP halide quenching | FRT cells expressing YFP-H148Q/I152L | 16 to 20 h, 37 °C, genistein 50 µM, together with: forskolin 20 µM | – | Vmax | 366 µM/s |
| CC(C)(C)c1cc(C(C)(C)C)c(NC(=O)c2c[nH]c3ccccc3c2=O)cc1O | CFTR (Homo sapiens, UniProt P13569, G551D) | short-circuit current, potentiator | CFBE | 14.44 µM, together with: forskolin 20 µM | baseline: PKA-activated wild type | CFTR activity | 4.4 ± 1.1% |
| COc1ccc(Cl)cc1Nc1nc2c(s1)CCCCc1nc(N)sc1-2 | CFTR del508-508 | iodide influx, corrector, YFP halide quenching | FRT cells expressing YFP-H148Q/I152L | 16 to 20 h, 37 °C, genistein 50 µM, together with: forskolin 20 µM | – | Vmax | 592 µM/s |
| COc1cccc(C(=O)NCCCNc2nc3cc(C)cc(C)c3cc2C#N)c1 | CFTR del508-508 | CFTR correction, corrector, iodide influx rate | FRT expressing YFP-H148Q/I152L | up to 25 µM, 16-20 h, 37 °C, together with: forskolin 20 µM, genistein 50 µM | – | Vmax | 134 µM/s |

Some of these lines once more:
| SMILES | target | assay | system | setting | scale | measurement | value |
| --- | --- | --- | --- | --- | --- | --- | --- |
| CN(C)c1ccc(Cl)cc1Nc1nc2c(s1)CCCc1nc(NC(=O)C(C)(C)C)sc1-2 | CFTR del508-508 | iodide influx, corrector, YFP halide quenching | FRT cells expressing YFP-H148Q/I152L | 16 to 20 h, 37 °C, genistein 50 µM, together with: forskolin 20 µM | – | Vmax | 366 µM/s |
